Assay results gathered from unrelated publications.
Each line is one published result; not all experiments were run side by side. “And” joins repeats or separate records; there may be more than shown. Numbers after ± are the reported error.

For `CC(=O)OC/C(C)=C/CCP(=O)(OCOC(=O)CC1CCCCC1)Oc1ccc(C(C)C)cc1` (centres unmarked), the remaining compound was 0% (50% CD1 mouse plasma; 100 µM, 2 h, pH 7.5, 37 °C).
`CC(C)C[C@@H]1NC(=O)CNC(=O)[C@H](CC(N)=O)NC(=O)[C@H](CCCNC(=N)N)NC(=O)[C@H]([C@@H](C)O)NC(=O)[C@@H]2CSSC[C@@H]3NC(=O)[C@H]([C@@H](C)O)NC(=O)CNC(=O)CNC(=O)[C@H](C(C)C)NC(=O)[C@@H]4CSSC[C@H](NC(=O)[C@H]([C@@H](C)O)NC(=O)[C@H](CSSC[C@H](NC(=O)[C@H](C(C)C)NC(=O)[C@@H]5CCCN5C1=O)C(=O)NCC(=O)N[C@@H](CCC(=O)O)C(=O)N[C@@H]([C@@H](C)O)C(=O)N4)NC(=O)CNC(=O)[C@H](CCCCN)NC(=O)[C@H]([C@@H](C)O)NC(=O)[C@H](CC(N)=O)NC3=O)C(=O)N[C@@H](CO)C(=O)N[C@@H](Cc1c[nH]c3ccccc13)C(=O)N1CCC[C@H]1C(=O)N[C@@H](C(C)C)C(=O)N2` has a remaining peptide of 76.8 ± 0.6% (HPLC; ammonium bicarbonate 0.1 M; 180 µM, 7 days, pH 9.0, 37 °C, deamidation stability).
With `CC(C)=CCC[C@](C)(O[C@@H]1O[C@H](CO)[C@@H](O)[C@H](O)[C@H]1O)[C@H]1CC[C@]2(C)[C@@H]1[C@H](O)C[C@@H]1[C@@]3(C)CC[C@H](O)C(C)(C)[C@@H]3CC[C@]12C` the remaining amount was 98.4 ± 7.8% (rat plasma; 5 ng/mL, 24 h, room temperature).
For `CCCCN1CCC(COC(=O)c2ccc(N)c(O[11CH3])c2)CC1`, “remaining parent compound” read 80% (rhesus monkey plasma; 30 min).
Under “remaining intact peptide”, `CC[C@H](C)[C@H](NC(=O)[C@H](CC(C)C)NC(=O)[C@H](CCCNC(=N)N)NC(=O)[C@@H](N)CCCNC(=N)N)C(=O)N[C@@H](CCCNC(=N)N)C(=O)N[C@@H](CCCCN)C(=O)N[C@@H](CC(C)C)C(=O)N[C@@H](CCCCN)C(=O)NCC(=O)N[C@@H](CC(C)C)C(=O)N[C@@H](CCCCN)C(=O)N[C@@H](CCCCN)C(=O)N[C@@H](Cc1ccc(O)cc1)C(=O)N[C@@H](CC(C)C)C(=O)N[C@@H](Cc1ccc(O)cc1)C(=O)N[C@@H](Cc1ccccc1)C(=O)N[C@@H](CCCCN)C(=O)N[C@@H](CC(C)C)C(=O)N[C@@H](CCC(N)=O)C(=O)N[C@@H](CC(C)C)C(=O)N[C@@H](CC(C)C)C(=O)N[C@@H](CCCCN)C(=O)N[C@@H](CCCCN)C(N)=O` is recorded as 40 ± 5% (LC-MS; 25% human serum; 200 µM, 60 h, 37 °C).
For `CC[C@@H](C)[C@@H](NC(=O)[C@@H](Cc1ccc(O)cc1)NC(=O)[C@H]1CCCN1C(=O)[C@@H](CCCNC(=N)N)NC(=O)[C@H](N)Cc1c[nH]cn1)C(=O)N[C@H](C)C(=O)N[C@H](Cc1c[nH]cn1)C(=O)N[C@H](CCCNC(=N)N)C(=O)N[C@H](CCCCNC(=O)c1cccc(S(=O)(=O)F)c1)C(=O)N[C@H](Cc1ccc(O)cc1)C(=O)N[C@H](CO)C(=O)N[C@H](Cc1ccccc1)C(N)=O`, the remaining compound was 107% and 87.6% and 106% (10% human serum; 0 h).
For `CC(C)[C@@H]1NC(=O)CNC(=O)[C@H](CC(N)=O)NC(=O)[C@H](CCCNC(=N)N)NC(=O)[C@H](Cc2ccc(O)cc2)NC(=O)[C@H](C(C)C)NC(=O)[C@@H](NC(=O)[C@@H](NC(=O)[C@H](CC(N)=O)NC(=O)[C@H](Cc2c[nH]c3ccccc23)NC(=O)[C@H](C)NC(=O)[C@H](Cc2ccccc2)NC(=O)CN)C(C)C)CSSC[C@@H](C(=O)N[C@@H](Cc2cnc[nH]2)C(=O)N[C@@H](CCCNC(=N)N)C(=O)N[C@@H](CCCNC(=N)N)C(=O)N[C@@H](C)C(=O)N[C@@H](CC(N)=O)C(N)=O)NC(=O)[C@H](C(C)C)NC(=O)[C@H](CCCNC(=N)N)NC1=O`, the remaining peptide was 7.81% and 4.94% and 8.2% (HPLC; mouse liver homogenate; 2560 µM, 4.00 h, 50 mg/mL tissue).
With `CN(C)CC[C@@H](c1ccc(Br)cc1)c1ccccn1` the IC50 was 6.31 µM (Plasmodium falciparum; Dd2).
`CC[C@H](C)[C@H](NC(C)=O)C(=O)N[C@@H](CC(C)C)C(=O)N[C@@H](CCCNC(=N)N)C(=O)N[C@@H](Cc1c[nH]c2ccccc12)C(=O)N[C@@H](CO)C(=O)N[C@@H](CCCNC(=N)N)C(=O)N[C@@H](CCCCN)C(=O)N[C@@H](CC(C)C)C(=O)N1CCC[C@H]1C(=O)N[C@@H](CS)C(=O)N[C@H](C(=O)N[C@@H](CO)C(N)=O)C(C)C` gave a remaining activity of 78 ± 4% (12G5 competition, SUP-T1 cells; human plasma; concentration not given, 2 h).
`CC(C)C[C@@H]1NC(=O)CNC(=O)[C@H](CC(N)=O)NC(=O)[C@H](CCCNC(=N)N)NC(=O)[C@H]([C@@H](C)O)NC(=O)[C@@H]2CSSC[C@@H]3NC(=O)[C@H]([C@@H](C)O)NC(=O)CNC(=O)CNC(=O)[C@H](C(C)C)NC(=O)[C@@H]4CSSC[C@H](NC(=O)[C@H]([C@@H](C)O)NC(=O)[C@H](CSSC[C@H](NC(=O)[C@H](C(C)C)NC(=O)[C@@H]5CCCN5C1=O)C(=O)NCC(=O)N[C@@H](CCCCN)C(=O)N[C@@H]([C@@H](C)O)C(=O)N4)NC(=O)CNC(=O)[C@@H]1CCCN1C(=O)[C@H]([C@@H](C)O)NC(=O)[C@H](CC(N)=O)NC3=O)C(=O)N[C@@H](CO)C(=O)N[C@@H](Cc1c[nH]c3ccccc13)C(=O)N1CCC[C@H]1C(=O)N[C@@H](C(C)C)C(=O)N2` gave a remaining peptide of 34.7% (HPLC; ammonium bicarbonate 0.1 M; 180 µM, 7 days, pH 9.0, 37 °C, deamidation stability).
Under “remaining parent compound”, `Cc1ccc2c(c1)C(=O)C1(O)CCN(c3ccccc3)C1=N2` (centres unmarked) is recorded as 9.3% (aqueous solution; 24 h, bright light).
For `CCCCN1[C@@H]2CC[C@H]1C[C@@H](OC(c1ccc(F)cc1)c1ccc(F)cc1)C2`, the IC50 was 3.98 µM (Plasmodium falciparum; Dd2).
With `CC(C)C[C@@H]1NC(=O)CNC(=O)[C@H](CC(N)=O)NC(=O)[C@H](CCCNC(=N)N)NC(=O)[C@H]([C@@H](C)O)NC(=O)[C@@H]2CSSC[C@@H]3NC(=O)[C@H]([C@@H](C)O)NC(=O)CNC(=O)CNC(=O)[C@H](C(C)C)NC(=O)[C@@H]4CSSC[C@H](NC(=O)[C@H](CCCCN)NC(=O)[C@H](CSSC[C@H](NC(=O)[C@H](C(C)C)NC(=O)[C@@H]5CCCN5C1=O)C(=O)NCC(=O)N[C@@H](CCC(=O)O)C(=O)N[C@@H]([C@@H](C)O)C(=O)N4)NC(=O)CNC(=O)[C@@H]1CCCN1C(=O)[C@H]([C@@H](C)O)NC(=O)[C@H](CC(N)=O)NC3=O)C(=O)N[C@@H](CO)C(=O)N[C@@H](Cc1c[nH]c3ccccc13)C(=O)N1CCC[C@H]1C(=O)N[C@@H](C(C)C)C(=O)N2` the remaining peptide was 96.1 ± 0.4% (HPLC; ammonium bicarbonate; 180 µM, 7 days, pH 9.0, 25 °C, deamidation stability).
The remaining activity of `CSCC[C@H](NC(=O)[C@H](CCCCN)NC(=O)[C@H](CCCNC(=N)N)NC(=O)[C@H](CO)NC(=O)[C@H](Cc1c[nH]c2ccccc12)NC(=O)[C@H](CCCNC(=N)N)NC(=O)[C@H](CC(C)C)NC(=O)[C@H](CO)NC(C)=O)C(=O)N1CCC[C@H]1C(=O)N[C@@H](CS)C(=O)N[C@H](C(=O)N[C@@H](CO)C(N)=O)C(C)C` is reported as 76 ± 11% (12G5 competition, SUP-T1 cells; human plasma; 20 µM, 8 h, 37 °C).
The remaining peptide of `CSCC[C@H](NC(=O)[C@H](CCCNC(=N)N)NC(=O)[C@H](CCCNC(=N)N)NC(=O)[C@H](CCCCN)NC(=O)[C@H](C)NC(=O)[C@H](CCCNC(=N)N)NC(=O)CNC(=O)[C@@H](NC(=O)CCNC(=O)c1ccc2c(c1)C(=O)OC21c2ccc(O)cc2Oc2cc(O)ccc21)[C@@H](C)O)C(=O)N[C@@H](CSCB(O)O)C(=O)N[C@@H](Cc1ccc(O)cc1)C(=O)N[C@@H](CSCB(O)O)C(=O)N[C@@H](CCCNC(=N)N)C(=O)N[C@@H](CCCNC(=N)N)C(N)=O` is reported as 28% and 28.6% and 25.5% (HPLC peak area; 50% human serum; 100 µM, 24 h, pH 7.4, 37 °C; baseline: 0 h).
For `CC(C)C[C@@H]1NC(=O)[C@H](CCCCN)NC(=O)[C@H](CC(N)=O)NC(=O)[C@H](CCCNC(=N)N)NC(=O)[C@H]([C@@H](C)O)NC(=O)[C@@H]2CSSC[C@@H]3NC(=O)[C@H]([C@@H](C)O)NC(=O)CNC(=O)CNC(=O)[C@H](C(C)C)NC(=O)[C@@H]4CSSC[C@H](NC(=O)[C@H]([C@@H](C)O)NC(=O)[C@H](CSSC[C@H](NC(=O)[C@H](C(C)C)NC(=O)[C@@H]5CCCN5C1=O)C(=O)NCC(=O)N[C@@H](CCC(=O)O)C(=O)N[C@@H]([C@@H](C)O)C(=O)N4)NC(=O)CNC(=O)[C@@H]1CCCN1C(=O)[C@H]([C@@H](C)O)NC(=O)[C@H](CC(N)=O)NC3=O)C(=O)N[C@@H](CO)C(=O)N[C@@H](Cc1c[nH]c3ccccc13)C(=O)N1CCC[C@H]1C(=O)N[C@@H](C(C)C)C(=O)N2`, the remaining peptide was 99.3 ± 0.9% (HPLC; ammonium bicarbonate; 180 µM, 7 days, pH 9.0, 25 °C, deamidation stability).
With `CSCC[C@H](NC(=O)[C@H](CCCCN)NC(=O)[C@H](CCCNC(=N)N)NC(=O)[C@H](CO)NC(=O)[C@H](Cc1c[nH]c2ccccc12)NC(=O)[C@H](CCCNC(=N)N)NC(=O)[C@H](CC(C)C)NC(=O)[C@H](N)Cc1ccccc1)C(=O)N1CCC[C@H]1C(=O)N[C@@H](CS)C(=O)N[C@H](C(=O)N[C@@H](CO)C(N)=O)C(C)C` the remaining activity was 66 ± 6% (12G5 competition, SUP-T1 cells; human plasma; concentration not given, 2 h).

Excerpt of the above:
For `CCCCN1[C@@H]2CC[C@H]1C[C@@H](OC(c1ccc(F)cc1)c1ccc(F)cc1)C2`, the IC50 was 3.98 µM (Plasmodium falciparum; Dd2).
With `CC(C)C[C@@H]1NC(=O)CNC(=O)[C@H](CC(N)=O)NC(=O)[C@H](CCCNC(=N)N)NC(=O)[C@H]([C@@H](C)O)NC(=O)[C@@H]2CSSC[C@@H]3NC(=O)[C@H]([C@@H](C)O)NC(=O)CNC(=O)CNC(=O)[C@H](C(C)C)NC(=O)[C@@H]4CSSC[C@H](NC(=O)[C@H](CCCCN)NC(=O)[C@H](CSSC[C@H](NC(=O)[C@H](C(C)C)NC(=O)[C@@H]5CCCN5C1=O)C(=O)NCC(=O)N[C@@H](CCC(=O)O)C(=O)N[C@@H]([C@@H](C)O)C(=O)N4)NC(=O)CNC(=O)[C@@H]1CCCN1C(=O)[C@H]([C@@H](C)O)NC(=O)[C@H](CC(N)=O)NC3=O)C(=O)N[C@@H](CO)C(=O)N[C@@H](Cc1c[nH]c3ccccc13)C(=O)N1CCC[C@H]1C(=O)N[C@@H](C(C)C)C(=O)N2` the remaining peptide was 96.1 ± 0.4% (HPLC; ammonium bicarbonate; 180 µM, 7 days, pH 9.0, 25 °C, deamidation stability).
